Experimental data collected from several papers.
Each line is one published result; not all experiments were run side by side. Values joined by “and” are separate records of one study, mostly repeats; a detail may differ.
Target: Casein kinase I isoform epsilon (CSNK1E, Homo sapiens, UniProt P49674)
Chain of UniProt P49674 (whole entry, looked up): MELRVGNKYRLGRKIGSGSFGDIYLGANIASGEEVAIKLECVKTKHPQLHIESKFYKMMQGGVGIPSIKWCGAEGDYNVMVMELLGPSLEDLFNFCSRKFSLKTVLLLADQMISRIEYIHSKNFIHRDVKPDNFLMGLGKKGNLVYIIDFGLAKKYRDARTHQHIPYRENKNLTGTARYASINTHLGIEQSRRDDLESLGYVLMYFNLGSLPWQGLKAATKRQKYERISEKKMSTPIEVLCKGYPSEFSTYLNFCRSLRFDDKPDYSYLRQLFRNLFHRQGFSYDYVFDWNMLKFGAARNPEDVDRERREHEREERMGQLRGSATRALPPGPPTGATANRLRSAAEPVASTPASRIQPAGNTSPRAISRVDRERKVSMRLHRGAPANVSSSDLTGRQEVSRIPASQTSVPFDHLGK

Compound	assay	setting	scale	measurement	result
COCC12C(=O)NC3C4(C(OC)CC1O)C1CC5(O)C(OC)C(O)C(OC(C)=O)(C1C5OC(=O)c1ccccc1)C3(O)C(OC)C24 (stereo not shown)	kinase activity, inhibitor, ProQinase kinase profiling	25 µM	reference: control	remaining activity	95% and 86%
COc1cc(Nc2nccc(-c3cnn4nc(OC)ccc34)n2)cc(C(F)(F)F)c1	binding, competition with immobilised ligand	1 µM		remaining binding	100%
CN1CCN(Cc2ccc(-c3ccc(CO[C@H]4CCC[C@@H]4NC(=O)c4cc(-c5cnn(C)c5)cnc4N)cc3)cc2)CC1	enzyme activity, inhibitor	0.1 µM		inhibition	5%
Cc1cccc(O[C@H]2CCC[C@@H](C(C)CNCc3ccncc3)C2)c1 (relative stereo)	enzyme activity, inhibitor	10 µM		inhibition	-8%
C=CC(=O)N1CCc2ccc(-n3c(=O)ccc4cnc5ccc(-c6cnn(C)c6)cc5c43)cc21	KINOMEscan	1 µM	reference: DMSO control	remaining binding	96%
Cc1ccc(-c2c(/C=C(\C#N)C(=O)NC(C)C)n(CCCO)c3ncnc(N)c23)cc1	cell-free assay, competition with immobilised ligand	1 µM		remaining binding	54%
CC(C)=CC1OC(C)(C)C2C=C3C(=O)C(Cl)=CC(O)C3C3C(O)C4OC4C(=O)C132 (stereo not shown)	cell-free assay, competition with immobilised ligand	10 µM		remaining binding	100%
NC(=O)C[C@H]1CCc2sc3ncnc(O[C@H]4CC[C@H](N5CCOCC5)CC4)c3c21	enzyme activity, inhibitor	10 µM		inhibition	8%
Cc1cc(NC(=O)[C@H](O)c2cc(F)cc(F)c2)ccc1-c1cnc(N)c(C(=O)NC(C)C)c1	binding, competition with immobilised ligand	10 µM		remaining binding	30%
CCn1cc(C(=O)O)c(=O)c2c(N)c(F)c(NC3CCCCC3)cc21	kinase activity	0.1 µM, with: ATP at Km		inhibition	-1.8%
CNC(=O)C1CCN(c2cc(C)c(F)cc2NC(=O)c2ccc(-c3cc(O)ccc3C)c(C)c2)CC1	binding, competition with immobilised ligand	1 µM		remaining binding	29%
C=CC(=O)N1CCCC(n2c(=O)c3ncccc3n(Cc3ccc(Oc4ccccc4)cc3)c2=O)C1 (stereo not shown)	cell-free assay, competition with immobilised ligand	1 µM		remaining binding	100%
Cc1cnc2nc1Nc1cccc(c1)COC/C=C/COCc1cc(ccc1OCCN1CCOCC1)N2	binding	0.1 µM		remaining binding	85%

For quick reference, copied from above:
Compound	assay	setting	scale	measurement	result
CNC(=O)C1CCN(c2cc(C)c(F)cc2NC(=O)c2ccc(-c3cc(O)ccc3C)c(C)c2)CC1	binding, competition with immobilised ligand	1 µM		remaining binding	29%
